Results gathered from unrelated publications.
Compare with care: the assays were run in different laboratories. Several values in a cell are separate wells, animals, samples, runs or records.
Cell line: SK-MEL-28

`CCCCN1CCN(c2ccc3[nH]c(-c4ccc5[nH]c(-c6cc(OC)c(OC)c(OC)c6)nc5c4)nc3c2)CC1` has a growth percent of 66.3% (SRB; 10 µM, 48 h).
With `C#C[C@@]1(O)[C@@H](CO)O[C@@H](n2cc(I)c3c(N)ncnc32)[C@@H]1O` the TGI was 9.27 µM and 14 µM (SRB; NCI-60 screen).
For `[Cl-].[Cl-].[Ru+2].c1cnc2c(c1)ccc1cccnc12.c1cnc2c(c1)ccc1cccnc12.c1csc(-c2nc3c4cccnc4c4ncccc4c3[nH]2)c1`, the phototherapeutic index was 23 (normoxia, added: green light 523 nm, 100 J/cm2).
For `CN1CCN(c2ccc3[nH]c(-c4ccc5[nH]c(-c6ccc(C(F)(F)F)cc6)nc5c4)nc3c2)CC1`, the growth percent was 63.2% (SRB; 10 µM, 48 h).
With `Cc1cc(-c2ccccc2)n(-c2nc(-c3ccc(Cl)cc3)c3c(NC(=O)c4ccccc4)nnc-3[nH]2)n1` the cell growth was 96.2% (SRB; 10 µM, NCI60 single-dose screen; reference: untreated).
For `Cn1cncc1C1=CN(c2ncnc3[nH]cnc23)CCS1`, the GI50 was 25.1 µM (melanoma cell line).
`CCCCN1CCN(c2ccc3[nH]c(-c4ccc5[nH]c(-c6ccc(OCC)cc6)nc5c4)nc3c2)CC1` has a growth percent of 61.6% (SRB; 10 µM, 48 h).
The phototherapeutic index of `[Cl-].[Cl-].[Ru+2].c1cnc2c(c1)ccc1cccnc12.c1cnc2c(c1)ccc1cccnc12.c1csc(-c2ccc(-c3ccc(-c4nc5c6cccnc6c6ncccc6c5[nH]4)s3)s2)c1` is reported as 5 (normoxia, added: red light 633 nm, 100 J/cm2).
`NNc1nc(-c2ccc(Cl)cc2)c2c(NC(=O)c3ccccc3)nnc-2[nH]1` has a cell growth of 106% (SRB; 10 µM, NCI60 single-dose screen; reference: untreated).
`COc1cnc2cccc(N3CCc4c(cc(Cn5ccnc5C)cc4-c4cn(C)nc4C(F)(F)F)C3=O)c2c1` gave an EC50 of 130 nM (cell growth, inhibitor; 120 h).
For `O=c1ccn(Cc2cn(-c3cc4ccccc4oc3=O)nn2)c(=O)[nH]1`, the growth percentage was 111% (NCI60 single-dose screen; 10 µM).
For `[Cl-].[Cl-].[Ru+2].c1cnc2c(c1)ccc1cccnc12.c1cnc2c(c1)ccc1cccnc12.c1csc(-c2ccc(-c3ccc(-c4ccc(-c5nc6c7cccnc7c7ncccc7c6[nH]5)s4)s3)s2)c1`, the EC50 was 2.2 nM (photocytotoxicity, resazurin; visible light, normoxia).
For `CCCC(CCC)C(=O)OCc1cn(-c2c3ccccc3nc3ccccc23)nn1`, the growth percentage was 104% (NCI60 single-dose screen; 10 µM).
The phototherapeutic index of `[Cl-].[Cl-].[Ru+2].c1cnc2c(c1)c1nc[nH]c1c1cccnc12.c1cnc2c(c1)ccc1cccnc12.c1cnc2c(c1)ccc1cccnc12` is reported as greater than 40 (normoxia, added: visible light 100 J/cm2; reference: dark EC50 over light EC50).

A few entries again:
`CCCCN1CCN(c2ccc3[nH]c(-c4ccc5[nH]c(-c6cc(OC)c(OC)c(OC)c6)nc5c4)nc3c2)CC1` has a growth percent of 66.3% (SRB; 10 µM, 48 h).
`NNc1nc(-c2ccc(Cl)cc2)c2c(NC(=O)c3ccccc3)nnc-2[nH]1` has a cell growth of 106% (SRB; 10 µM, NCI60 single-dose screen; reference: untreated).
